Measurements from different studies.
Compare with care: the assays were run in different laboratories.
Sample: plasma

| Compound | host | route | dose | setting | half-life |
| --- | --- | --- | --- | --- | --- |
| COc1ccc(-n2cc(C(=O)N3C[C@]4(OC(=O)c5ccccc5NC(C)=O)CC[C@H](OC)[C@@]56[C@@H]4C[C@@H]([C@@H]35)[C@@]3(O)C[C@H](OC)[C@H]4C[C@@H]6[C@]3(O)[C@H]4OC)nn2)cc1 | Sprague-Dawley rat | intravenous | 2 mg/kg |  | 0.385 h |
| c1ccc(C2(CCNC3CCC4(SCCS4)c4ccccc43)CCOC3(CCCC3)C2)nc1 (centres unmarked) | Sprague-Dawley rat | intravenous | 0.5 mg/kg |  | 0.76 h |
| CC[C@H](C)[C@H](NC(=O)[C@H](CCCN)NC(=O)[C@H](CC(N)=O)NC(=O)[C@H](Cc1c[nH]c2ccccc12)NC(=O)[C@H](Cc1ccccc1)NC(=O)[C@H](CCCN)NC(=O)[C@H](CCCCNC(=N)N)NC(=O)[C@H](CC(C)C)NC(=O)[C@H](Cc1c[nH]c2ccccc12)NC(=O)[C@H](CCCN)NC(=O)[C@H](CCCCNC(=N)N)NC(=O)[C@H](CC(C)C)NC(=O)CNC(C)=O)C(=O)N[C@@H](CCCN)C(=O)N[C@@H](CCCCNC(=N)N)C(N)=O | male Sprague-Dawley rat | intravenous | 5 mg/kg |  | 0.66 h |
| CCCC[C@@H]1NC(=O)[C@H](Cc2ccc(O)cc2)NC(=O)[C@@H]2CCCN2C(=O)[C@H](CC(=O)O)NC(=O)[C@H](C)NC(=O)[C@H](Cc2ccccc2)NC(=O)[C@@H]2CSCCC(=O)N3CN(CN(C3)C(=O)CCSC[C@@H](C(=O)N[C@@H](C)C(N)=O)NC1=O)C(=O)CCSC[C@H](NC(C)=O)C(=O)N[C@@H](CC(C)(C)C)C(=O)N1CCC[C@H]1C(=O)N[C@@H](CCC(=O)O)C(=O)N[C@H](CCCCNC(=O)CCc1cn(CCOCCOCCOCCN(CCOCCOCCOCCC(=O)N[C@H]3CSCCC(=O)N4CN5CN(C4)C(=O)CCSC[C@H](NC(=O)[C@@H](CCC(=O)O)NC(=O)[C@H](Cc4cccc6ccccc46)NC(=O)[C@@H]4CCCN4C3=O)C(=O)N[C@@H](CCSC)C(=O)N[C@@H](CCCCNC(=N)N)C(=O)N[C@@H](CCC(=O)O)C(=O)N[C@@H](Cc3c[nH]c4ccccc34)C(=O)N[C@@H](CO)C(=O)N[C@@H]([C@@H](C)O)C(=O)N3CCC[C@H]3C(=O)N3C[C@H](O)C[C@H]3C(=O)N[C@@H](Cc3c[nH]c4ccccc34)C(=O)N[C@H](C(N)=O)CSCCC5=O)CCOCCOCCOCCn3cc(CCC(=O)NCCCC[C@H]4NC(=O)[C@H](CCC(=O)O)NC(=O)[C@@H]5CCCN5C(=O)[C@H](CC(C)(C)C)NC(=O)[C@@H](NC(C)=O)CSCCC(=O)N5CN6CN(C5)C(=O)CCSC[C@H](NC(=O)[C@H](Cc5ccc(O)cc5)NC(=O)[C@@H]5CCCN5C4=O)C(=O)N[C@@H](Cc4ccccc4)C(=O)N[C@@H](C)C(=O)N[C@@H](CC(=O)O)C(=O)N4CCC[C@H]4C(=O)N[C@@H](Cc4ccc(O)cc4)C(=O)N[C@@H](CCCC)C(=O)N[C@H](C(=O)N[C@@H](C)C(N)=O)CSCCC6=O)nn3)nn1)C(=O)N1CCC[C@H]1C(=O)N[C@@H](Cc1ccc(O)cc1)C(=O)N2 | rat | intravenous | 2 mg/kg |  | 0.37 h |
| C[C@@H]1CC[C@H]2[C@@H](C)CO[C@@H]3O[C@@]4(C)CC[C@@H]1[C@]32OO4 | male Sprague-Dawley rat | oral | 100 mg/kg |  | 5.22 h |
| Cc1cc(Nc2nc(C[C@@]3(C(=O)O)CCN(Cc4cccc(Cl)c4F)[C@H](C)C3)cc(C)c2F)n[nH]1 | Sprague-Dawley rat | intravenous | 0.5 mg/kg | single dose | 5.1 h |
| CCCCCCCC[C@@H]1NC(=O)[C@@H](Cc2ccccc2)NC(=O)[C@H](CCN)NC(=O)[C@@H](NC(=O)[C@H](CCN)NC(=O)[C@@H](NC(=O)[C@H](CCN)NC(=O)c2ccc(-c3ccccc3)cc2)[C@@H](C)O)CCNC(=O)[C@H]([C@@H](C)O)NC(=O)[C@H](CCN)NC(=O)[C@H](CCN)NC1=O | rat | intravenous |  | single dose | 2.77 to 3.4 h |
| CCCCCCCCCCCCCC(=O)N[C@H](CCN)C(=O)N[C@@H]1C(=O)N[C@@H](CCN)C(=O)N[C@@H](CC(C)C)C(=O)N[C@@H](CCN)C(=O)N[C@H](Cc2ccccc2)C(=O)N[C@@H](CC(C)C)C(=O)N[C@@H](CCN)C(=O)N[C@H](CCN)C(=O)N[C@@H](C(C)C)C(=O)N[C@@H](CC(=O)O)C(=O)O[C@@H]1C | rat | subcutaneous | 10 mg/kg |  | 20.2 h |

For quick reference, copied from above:
| Compound | host | route | dose | setting | half-life |
| --- | --- | --- | --- | --- | --- |
| CCCCCCCCCCCCCC(=O)N[C@H](CCN)C(=O)N[C@@H]1C(=O)N[C@@H](CCN)C(=O)N[C@@H](CC(C)C)C(=O)N[C@@H](CCN)C(=O)N[C@H](Cc2ccccc2)C(=O)N[C@@H](CC(C)C)C(=O)N[C@@H](CCN)C(=O)N[C@H](CCN)C(=O)N[C@@H](C(C)C)C(=O)N[C@@H](CC(=O)O)C(=O)O[C@@H]1C | rat | subcutaneous | 10 mg/kg |  | 20.2 h |
